Experimental data gathered from unrelated publications.
Every numbered part comes from another study and shows a few of its results, in no order. Values joined by “and” are separate records of one study, mostly repeats; a detail may differ.

Sample 1
SMILES: COc1cc(C(=O)N2CCC(N3CCN(C)CC3)CC2)ccc1Nc1ncc2c(n1)N(C)c1ccccc1C(=O)N2C
Technique: KINOMEscan
Tested at: 10 µM
Baseline: DMSO control
Direction: lower = stronger binding
The binding was 99% (ZAK).
The binding was 78% (CDKL1).
For DDR1: binding read 100%.
It gave 100% for binding (CSNK1A1L).
HIPK4 — binding: 100%.
IGF1R — binding: 96%.
For PIK3CG: binding read 15%.
It gave 100% for binding (LYN).
For AKT2: binding read 100%.
The binding was 21% (CAMK2A).
The binding was 100% (NEK2).
For MAP3K4: binding read 100%.

Sample 2
Target: Inhibitor of nuclear factor kappa-B kinase subunit alpha (CHUK, Homo sapiens, UniProt O15111)
Effect on: enzyme activity
Action: inhibitor
Tested at: 0.5 µM
Baseline: control
Target sequence (O15111 1-745): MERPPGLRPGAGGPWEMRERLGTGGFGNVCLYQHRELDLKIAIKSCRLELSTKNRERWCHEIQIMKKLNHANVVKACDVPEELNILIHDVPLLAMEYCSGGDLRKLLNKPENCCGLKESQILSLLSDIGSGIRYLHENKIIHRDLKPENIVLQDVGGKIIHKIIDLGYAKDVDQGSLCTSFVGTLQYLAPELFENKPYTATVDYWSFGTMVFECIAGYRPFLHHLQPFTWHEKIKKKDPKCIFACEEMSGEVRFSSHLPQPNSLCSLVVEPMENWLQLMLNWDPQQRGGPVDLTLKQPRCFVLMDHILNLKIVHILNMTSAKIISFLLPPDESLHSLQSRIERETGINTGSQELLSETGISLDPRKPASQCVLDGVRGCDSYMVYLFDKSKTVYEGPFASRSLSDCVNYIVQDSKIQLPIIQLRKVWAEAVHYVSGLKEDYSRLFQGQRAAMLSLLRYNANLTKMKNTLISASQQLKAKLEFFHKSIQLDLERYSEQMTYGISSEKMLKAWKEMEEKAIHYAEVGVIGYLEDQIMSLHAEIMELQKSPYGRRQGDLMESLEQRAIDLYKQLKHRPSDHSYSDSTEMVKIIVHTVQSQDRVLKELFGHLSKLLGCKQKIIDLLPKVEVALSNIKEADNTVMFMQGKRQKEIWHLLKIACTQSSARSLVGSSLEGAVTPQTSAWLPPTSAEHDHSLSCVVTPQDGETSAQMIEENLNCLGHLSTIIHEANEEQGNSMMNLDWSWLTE
For `O=C1NC(=O)/C(=C/c2ccc3nccnc3c2)S1`, the remaining activity was 86.7%.
The remaining activity of `COc1cc2ncc(-c3ccccc3)nc2cc1OC` is reported as 113%.
`COc1cc2ncnc(N3CCN(C(=O)Nc4ccc(Oc5ccccc5)cc4)CC3)c2cc1OC` has a remaining activity of 96%.
The remaining activity of `CCC(=O)Nc1ccc2ncnc(Nc3cccc(Br)c3)c2c1` is reported as 99.3%.
`CS(=O)(=O)CCNCc1ccc(-c2ccc3ncnc(Nc4ccc(OCc5cccc(F)c5)c(Cl)c4)c3c2)o1` gave a remaining activity of 99.5%.
`CC(C)[C@H](CO)Nc1nc(Nc2cccc(Cl)c2)c2ncn(C(C)C)c2n1` has a remaining activity of 106%.
`CC(=O)O/N=C1/C(c2c(O)[nH]c3cc(Br)ccc23)=Nc2ccccc21` gave a remaining activity of 98.3%.
`Nc1[nH]nc2nnc(-c3c(-c4ccccc4)nn4ccccc34)cc12` has a remaining activity of 97.5%.
`CN(C)CCCn1cc(C2=C(c3c[nH]c4ccccc34)C(=O)NC2=O)c2ccccc21` gave a remaining activity of 105%.
With `COc1cc2ncnc(Nc3ccc(OCc4ccccc4)cc3)c2cc1OC` the remaining activity was 95.1%.
`CC(C)c1nn(-c2c(Cl)cccc2Cl)c2nc(Cc3ccc(OCCO)cc3)[nH]c(=O)c12` has a remaining activity of 98.5%.
`COc1ccc(-c2cnc3c(-c4ccsc4)cnn3c2)cc1` gave a remaining activity of 94.5%.
With `Cn1cnc2cc3c(Nc4cccc(Br)c4)ncnc3cc21` the remaining activity was 89.7%.
For `Cn1cc(/C=C2\C(=O)Nc3ccc(S(N)(=O)=O)cc32)c2ccccc21`, the remaining activity was 109%.
`O=C(Nc1ccc(Cl)cc1)c1ccccc1NCc1ccncc1` gave a remaining activity of 104%.
`CCN1/C(=C/C(C)=O)Sc2ccc(OC)cc21` gave a remaining activity of 89.9%.
For `CCOc1cc2ncnc(Nc3cccc(Br)c3)c2cc1OCC`, the remaining activity was 105%.
`Cc1nc(Nc2ncc(C(=O)Nc3c(C)cccc3Cl)s2)cc(N2CCN(CCO)CC2)n1` has a remaining activity of 95%.
For `COc1ccc(Cl)cc1NC(=O)Nc1cc(C)nc2ccccc12`, the remaining activity was 100%.
The remaining activity of `O=c1cc(N2CCOCC2)oc2c1ccc1ccccc12` is reported as 93.4%.
With `C[S+]([O-])c1ccc(-c2nc(-c3ccncc3)c(-c3ccc(F)cc3)[nH]2)cc1` (stereo not shown) the remaining activity was 100%.

Sample 3
Target: Calcium/calmodulin-dependent protein kinase type II subunit alpha (CAMK2A, Homo sapiens, UniProt Q9UQM7)
Chain of UniProt Q9UQM7 (whole entry, looked up): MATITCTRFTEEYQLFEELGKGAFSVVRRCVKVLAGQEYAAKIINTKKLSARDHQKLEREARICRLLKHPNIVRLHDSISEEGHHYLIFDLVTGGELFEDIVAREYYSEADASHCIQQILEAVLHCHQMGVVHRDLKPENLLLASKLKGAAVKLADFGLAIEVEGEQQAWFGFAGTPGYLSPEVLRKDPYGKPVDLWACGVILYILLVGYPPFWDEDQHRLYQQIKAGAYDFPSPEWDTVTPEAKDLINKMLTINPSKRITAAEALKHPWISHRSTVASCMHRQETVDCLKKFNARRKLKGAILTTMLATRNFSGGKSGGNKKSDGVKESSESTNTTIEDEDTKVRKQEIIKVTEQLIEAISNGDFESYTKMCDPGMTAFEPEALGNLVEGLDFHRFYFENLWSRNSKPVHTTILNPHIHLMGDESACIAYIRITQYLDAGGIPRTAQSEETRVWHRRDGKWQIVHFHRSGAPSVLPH
Effect on: enzyme activity
Action: inhibitor
Tested at: 10 µM
With `CCCN1CC(c2ccc(S(C)(=O)=O)cc2)=C(c2ccc(C)cc2)C1=O` the inhibition was 0%.
The inhibition of `CCCCC/C=C\C/C=C\C/C=C\C/C=C\CCCC(=O)O` is reported as -3%.
`O=C(O)CC(O)CC(=O)O` has an inhibition of 4%.
With `CC(C(=O)O)C(O)(CC(=O)O)C(=O)O` (stereo not shown) the inhibition was -12%.
For `C[C@H]1[C@H](C)CC[C@]2(CO)CC[C@]3(C)C(=CC[C@@H]4[C@@]5(C)CC[C@H](O)C(C)(C)[C@@H]5CC[C@]43C)[C@H]12`, the inhibition was -2%.
With `Cc1c[nH]c(=O)[nH]c1=O` the inhibition was -18%.
`COC(=O)N[C@H](C(=O)N1CCC[C@H]1c1ncc(-c2ccc3c(c2)O[C@@H](c2ccccc2)n2c-3cc3cc(-c4cnc([C@@H]5CCCN5C(=O)[C@@H](NC(=O)OC)C(C)C)[nH]4)ccc32)[nH]1)C(C)C` has an inhibition of -6%.
For `OC[C@H](O)C(O)[C@@H](O)CO`, the inhibition was 0%.

Sample 4
SMILES: CNC(=O)Nc1ccc2c(c1)CC[C@]21OC(=O)N(CC(=O)N(Cc2ccc(F)cc2)[C@@H](C)C(F)(F)F)C1=O
Tested at: 0.1 µM
Baseline: DMSO
sample B colorectal tumour organoid; replicate 1 — viability: 98.7%.
sample B colorectal tumour organoid — viability: 104%.
The viability was 96.6% (sample I colorectal tumour organoid; replicate 2).
It gave 110% for viability (colorectal tumour organoids).
The viability was 106% (sample C colorectal tumour organoid; replicate 2).
For sample C colorectal tumour organoid: viability read 113%.
It gave 106% and 85.9% for viability (normal-adjacent epithelium patient-derived organoids sample F; CellTiter-Glo).
normal-adjacent epithelium patient-derived organoids sample G; CellTiter-Glo — viability: 97.9% and 112%.
It gave 101% and 120% for viability (normal-adjacent epithelium patient-derived organoids sample H; CellTiter-Glo).
It gave 100% for viability (sample I colorectal tumour organoid; replicate 1).
sample I colorectal tumour organoid — viability: 98.3%.
The viability was 121% (sample BA colorectal tumour organoid).
For sample C colorectal tumour organoid; replicate 1: viability read 119%.
The viability was 110% (sample B colorectal tumour organoid; replicate 2).
